# Experimental data of several laboratories.
# Each numbered part is a random draw from the data of one study; scales do not carry over between parts. Positions count from the first letter of the parent shown.

# Sample 1
# Target: CCNA2, cyclin fold, Cln2 fusion (human)
# Technique: yeast growth competition, sequencing
# Sample: yeast
# Notes: weak parent motif
# Relative to: not given
# Direction: higher = stronger binding
# Parent: LLGL2 docking peptide (human); KSLKKSLRQSFRR
Variant,normalised enrichment score
K5A,1.25
K4A,1.73
R8A,1.31
F11A,0.046
S10A,1.03
S2A,0.997

# Sample 2
# Target: ABI1, truncated, D143A, DHFR fusion (Arabidopsis thaliana)
# Technique: DHFR PCA, deep sequencing
# Sample: yeast
# Notes: methotrexate growth selection, single substitutions
# Together with: (+)-ABA 710 µM
# Relative to: wild-type fitted maximum
# Direction: higher = stronger binding
# Parent: PYL1, truncated, DHFR fusion (Arabidopsis thaliana); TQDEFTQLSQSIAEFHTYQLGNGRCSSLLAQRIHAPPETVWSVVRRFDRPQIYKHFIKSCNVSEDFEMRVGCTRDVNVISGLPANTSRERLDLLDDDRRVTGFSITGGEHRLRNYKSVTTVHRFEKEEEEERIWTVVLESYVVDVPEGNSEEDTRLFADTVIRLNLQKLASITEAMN; partner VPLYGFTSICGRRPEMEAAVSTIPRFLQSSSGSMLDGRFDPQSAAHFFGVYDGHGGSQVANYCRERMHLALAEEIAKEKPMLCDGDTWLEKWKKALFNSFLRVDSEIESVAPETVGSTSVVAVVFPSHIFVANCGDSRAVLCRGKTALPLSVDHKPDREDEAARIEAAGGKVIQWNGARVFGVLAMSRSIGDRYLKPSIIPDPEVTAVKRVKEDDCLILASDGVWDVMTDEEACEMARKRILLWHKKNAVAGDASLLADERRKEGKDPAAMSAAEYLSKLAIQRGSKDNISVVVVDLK
Variant,relative binding score [%]
S26H,103
G71K,71.1
I33Q,7.75
T1L,99
P50K,-13.8
P36Y,96.4
L166I,64.2
H55L,103
V136N,50.7
L94V,92.2
G148Y,83

# Sample 3
# Target: Sal-like protein 4, full length isoform B (SALL4, Homo sapiens, UniProt Q9UJQ4-2, residues 1-616)
# Technique: universal PBM
# Form: double-stranded DNA, one strand shown
# Sample: in vitro
# Concentration: not given
# Notes: 8-mer, flanks averaged, mean of replicates
# Direction: higher = stronger binding
# Target sequence (chain): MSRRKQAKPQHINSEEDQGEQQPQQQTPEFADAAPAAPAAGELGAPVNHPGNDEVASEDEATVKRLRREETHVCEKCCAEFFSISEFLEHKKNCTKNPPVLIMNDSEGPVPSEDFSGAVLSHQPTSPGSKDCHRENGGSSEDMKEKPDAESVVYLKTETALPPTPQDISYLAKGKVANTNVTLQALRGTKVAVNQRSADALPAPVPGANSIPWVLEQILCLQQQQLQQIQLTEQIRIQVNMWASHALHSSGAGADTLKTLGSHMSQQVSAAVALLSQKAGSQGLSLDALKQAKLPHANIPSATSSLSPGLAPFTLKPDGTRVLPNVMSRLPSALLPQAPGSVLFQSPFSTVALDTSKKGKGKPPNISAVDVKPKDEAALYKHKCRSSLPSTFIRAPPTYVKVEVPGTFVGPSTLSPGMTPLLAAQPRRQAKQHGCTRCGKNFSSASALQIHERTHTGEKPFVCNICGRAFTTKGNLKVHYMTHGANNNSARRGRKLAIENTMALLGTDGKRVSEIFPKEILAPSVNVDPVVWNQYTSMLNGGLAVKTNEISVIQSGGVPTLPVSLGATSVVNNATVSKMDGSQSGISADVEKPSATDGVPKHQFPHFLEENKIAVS
Strand,E-score
GCTTAATA,0.292
GAAAGATA,0.231
AGACGGTA,0.0171
CAAGGCGA,-0.193
AATCCGTC,-0.0644
CTTCCTAA,0.208
GAAAAGGC,0.154
CGTCCGTA,-0.116
GCATCGGC,-0.294
CGCTACAC,-0.0416
CCTCACTC,-0.182
GCGCTTTA,0.0352
GAATGCAA,0.189
GCCAATAA,0.237
AACATAGC,0.163
AGCCTCAC,-0.21

# Single results of other studies
Substance,target,test,system,setting,scale,measurement,value
"PhoQ, residues 284 288 289 292 302 303 SCCLKL","PhoP, residues 12 14 15 18 19 AGCRL (Escherichia coli, UniProt P23836)","Sort-seq, measured: YFP reporter",E. coli,"PhoQ-PhoP variant library, together with: 10 µM Mg2+","relative to: high Mg2+ state, higher = stronger signaling",fold induction,1.54
